Assay results collected from several papers.
Parts stem from different laboratories: compare values within a part only. Positions count from the first letter of the parent shown.

Set 1
Target: ABI1, truncated, D143A, DHFR fusion (Arabidopsis thaliana)
Method: DHFR PCA, deep sequencing
Sample: yeast
Setting: methotrexate growth selection, single substitutions
Added: (+)-ABA 0.0091 µM
Relative to: wild-type fitted maximum
Direction: higher = stronger binding
Starting sequence: PYL1, truncated, DHFR fusion (Arabidopsis thaliana); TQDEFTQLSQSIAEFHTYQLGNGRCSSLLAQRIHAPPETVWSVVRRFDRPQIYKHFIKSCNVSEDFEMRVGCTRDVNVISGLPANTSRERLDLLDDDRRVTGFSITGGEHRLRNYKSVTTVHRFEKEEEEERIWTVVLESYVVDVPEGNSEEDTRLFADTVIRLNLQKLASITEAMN; partner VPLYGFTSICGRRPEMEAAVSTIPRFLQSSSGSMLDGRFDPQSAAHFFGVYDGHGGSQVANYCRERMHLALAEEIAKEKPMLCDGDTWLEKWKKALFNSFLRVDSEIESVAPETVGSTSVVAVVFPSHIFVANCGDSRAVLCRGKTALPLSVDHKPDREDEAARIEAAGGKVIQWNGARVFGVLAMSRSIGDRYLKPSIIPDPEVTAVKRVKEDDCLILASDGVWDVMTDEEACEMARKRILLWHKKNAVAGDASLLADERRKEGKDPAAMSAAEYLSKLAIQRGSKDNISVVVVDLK
Variant	relative binding score [%]
I79C	35.7
H110F	18.5
I79G	1.8
Q19P	49.6
S63C	30.3
K168D	-0.108
I172H	-4.78
H16F	-2.73
E131W	27.5
P146K	1.53
E129Q	29.7
R45W	-0.283
D96S	-1.38
Q2R	19.4
P37T	6.39
F47Q	-4.18

Set 2
Target: Interferon regulatory factor 7, full length, phosphomimetic (IRF7, Homo sapiens, UniProt Q92985, residues 1-503, S101K/S471D/S472D/S475D/S476D/S477D/S483D/S484D/S487D)
Sequence of UniProt Q92985 (whole entry, unmodified, looked up): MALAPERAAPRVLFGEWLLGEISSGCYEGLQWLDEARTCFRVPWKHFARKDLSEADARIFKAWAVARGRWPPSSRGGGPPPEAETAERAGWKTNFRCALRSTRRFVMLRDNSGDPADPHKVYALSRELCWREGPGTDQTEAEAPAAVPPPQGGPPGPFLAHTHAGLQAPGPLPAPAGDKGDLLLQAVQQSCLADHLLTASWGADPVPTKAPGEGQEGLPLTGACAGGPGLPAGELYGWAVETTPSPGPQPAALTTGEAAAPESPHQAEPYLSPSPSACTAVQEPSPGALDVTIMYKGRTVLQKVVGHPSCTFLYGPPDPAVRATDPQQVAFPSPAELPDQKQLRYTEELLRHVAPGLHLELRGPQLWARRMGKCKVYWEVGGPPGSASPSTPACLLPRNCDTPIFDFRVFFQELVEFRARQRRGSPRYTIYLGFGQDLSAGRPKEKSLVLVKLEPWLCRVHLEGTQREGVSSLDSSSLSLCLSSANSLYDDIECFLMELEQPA
Method: protein-binding microarray
Form: double-stranded DNA, one strand shown
Sample: in vitro
Concentration: 250 nM
Setting: 60-bp whole probe
Added: salmon DNA 0.4 mg/ml
Relative to: random background probes
Direction: higher = stronger binding
Shared flanks, not repeated: GCCTAGCAC … GTCTTGATTCGCTTGACGCTGCTG
Strand	log fluorescence
AATTAGGTTTCACTTTCCAAAGTGCTA	9.3 z-score
TTAGGACTGCGGACTGGGTTAGTGCTA	-0.748 z-score
TCAGGTTTCGGGTTTCGGTTAGTGCTA	12.4 z-score
TTAGATTTCGACTATCGGTTAGTGCTA	0.748 z-score
CCTTGTACGTCGTTTCCCAAGGTGCTA	1.03 z-score
GACGGTATCGGTCTCGGGCCGTGCTAG	0.24 z-score
GACGGTATCGACCTTCGGGACGTGCTA	-0.209 z-score
CTAGATATCGGGTATCGATTAGTGCTA	1.25 z-score
TCAACTCTTCTTTTTTTACTGTGCTAG	0.489 z-score
TTAGGTTTCGGTTCCGGTTTGTGCTAG	13.1 z-score
TCACGGCTCGTTATCCTACTGTGCTAG	0.369 z-score
GACAGTATCGGTTTCGGGACGTGCTAG	6.46 z-score
GAGGAACTGGGGACTGGAGACGTGCTA	-0.588 z-score
GACGAACTGGGGTTTGGAGACGTGCTA	-0.43 z-score
TTAGATCTCAGTTTCGTTTAGTGCTAG	9.01 z-score
GTCGGTATCGACACTGGGGACGTGCTA	-0.252 z-score
GACGATATTGGGTTTCGAGACGTGCTA	2.43 z-score
TTAAGTATCCTTTTCCTTTAGTGCTAG	1.69 z-score
GAAGATATCGGGTATCGAGACGTGCTA	-0.0403 z-score

Set 3
Target: Prothrombin, mature alpha-thrombin (F2, Homo sapiens, UniProt P00734)
Method: aptamer microarray, sandwich
Form: DNA with 2'F-ANA
Sample: in vitro
Concentration: 200 nM
Setting: whole 15-mer aptamer, many near background
Added: Cy3 exosite-II aptamer, 400 nM
Direction: higher = stronger binding
Strand: GGTTGGTGTGGTTGG
Modification	mean fluorescence intensity [a.u.]
2'F-ANA at 5 6 7 8 12 13 14 15	49.4
2'F-ANA at 3 7 12	1620
2'F-ANA at 1 2 4 6 9 11 13 14 15	50.6
2'F-ANA at 4 6 7 9 11 12 15	342
2'F-ANA at 3 4 7 10 13	266
2'F-ANA at 1 2 4 6	112
2'F-ANA at 1 5 6 10 14	46.2
2'F-ANA at 3 4 7 8 9 13	563
2'F-ANA at 1 5 6 7 11 12 15	85.9
2'F-ANA at 2 3 8 11 12 15	1060
2'F-ANA at 3 6 7 10 14	475
2'F-ANA at 1 2 3 4 5 7 9 12	139
2'F-ANA at 2 4 5 6 9 10 12 14	46
2'F-ANA at 1 2 4 7 9 10 15	50.3
2'F-ANA at 1 3 4 5 6 11 12	84.9
2'F-ANA at 2 3 4 6 7 9 10 11 13 14 15	148
2'F-ANA at 1 2 4 5 6 8 9 10 12	50.1
2'F-ANA at 2 4 7 8 11 12 13 14 15	134
2'F-ANA at 6 10 13 14 15	116
2'F-ANA at 1 4 5 6 7 8 9 13 14	56.1
2'F-ANA at 1 2 3 4 7 8 9 10 12 15	84.5
2'F-ANA at 1 2 4 7 11 13 14 15	52.3
2'F-ANA at 1 7 9 11 12 14	66.7
2'F-ANA at 4 5 13	53.6
2'F-ANA at 2 3 4 6 7 10 11 12 13 14 15	122

Set 4
Target: ATF3, bZIP domain (human)
Method: DHFR protein complementation
Sample: yeast
Setting: single substitutions, most at no-binding floor
Relative to: wild-type JUN-FOS pair
Direction: higher = stronger binding
Starting sequence: JUN, bZIP domain (human); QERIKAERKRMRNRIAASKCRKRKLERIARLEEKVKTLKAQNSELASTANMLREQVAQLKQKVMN; partner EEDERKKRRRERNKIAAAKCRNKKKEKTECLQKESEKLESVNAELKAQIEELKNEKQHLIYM
Variant	binding fitness
E33G	-0.348 natural log
A49E	-0.36 natural log
R30M	-0.101 natural log
E44I	-0.171 natural log
V35R	-0.951 natural log
E32T	-0.245 natural log
M51V	-0.129 natural log
Q41I	-0.111 natural log
K39L	-0.379 natural log
E44S	-0.233 natural log
T48Y	-0.0653 natural log
L38A	-0.672 natural log

Set 5
Target: CCNE1, cyclin fold, Cln2 fusion (human)
Method: yeast growth competition, sequencing
Sample: yeast
Setting: strong parent motif
Relative to: not given
Direction: higher = stronger binding
Starting sequence: CCP110 docking peptide (human); EKVKRRLDLDIDG; partner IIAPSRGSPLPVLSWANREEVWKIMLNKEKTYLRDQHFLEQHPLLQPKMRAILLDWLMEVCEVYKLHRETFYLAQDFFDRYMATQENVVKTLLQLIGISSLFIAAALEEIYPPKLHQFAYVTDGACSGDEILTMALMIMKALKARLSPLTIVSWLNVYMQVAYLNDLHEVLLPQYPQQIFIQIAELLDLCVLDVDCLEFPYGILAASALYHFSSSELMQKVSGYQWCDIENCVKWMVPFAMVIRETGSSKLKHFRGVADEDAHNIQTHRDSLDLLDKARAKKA
Variant	normalised enrichment score
K4A	1.06
I11A	1.44
L9F	6.53
G13A	2.78
R6A	0.753
D12A	1.78
L7A	-0.121

Set 6
Target: Centromere-binding protein 1, full length, His-tagged (CBF1, Saccharomyces cerevisiae, UniProt P17106, residues 1-351)
Sequence of UniProt P17106 (whole entry, looked up): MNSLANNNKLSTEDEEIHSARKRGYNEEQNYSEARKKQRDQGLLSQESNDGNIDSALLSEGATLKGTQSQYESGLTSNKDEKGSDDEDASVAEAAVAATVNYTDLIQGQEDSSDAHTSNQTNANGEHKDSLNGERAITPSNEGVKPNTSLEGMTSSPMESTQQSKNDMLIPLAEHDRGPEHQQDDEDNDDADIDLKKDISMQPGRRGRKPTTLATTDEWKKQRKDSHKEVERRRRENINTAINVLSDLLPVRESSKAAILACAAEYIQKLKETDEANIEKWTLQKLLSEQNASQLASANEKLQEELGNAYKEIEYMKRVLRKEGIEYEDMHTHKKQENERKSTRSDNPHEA
Method: competition protein-binding microarray
Form: double-stranded DNA, one strand shown
Sample: in vitro
Concentration: 2 µM
Setting: whole 60-bp probe, lowest competitor level
Added: Pho4 competitor, 0.05 µM
Direction: higher = stronger binding
Shared flanks, not repeated: … GTCTTGATTCGCTTGACGCTGCTG
Strand	fluorescence intensity [a.u.]
AAATTACTAAGTTGTAGCGTGGGTGACGCCGTATGA	64.4
ACCCTTTTTCCTTGCCACGTTTTCACTCAGATCTAA	132
GCCATCCAAAACTTGCCCGTGGTGAACTCATTCGGA	81.9
GTTATTGGGCTAGGACACGTATGCGAACTACAACCT	69.1
TTGAACTCGCCGCCTCACCTGCCACTACGTCTTCCG	52
AAGGATAGCACTTTGATCATGCAATTATTAAGGGAC	102
CGTCCTAGTGATTGCGGTGTGGGTGCCATGAGGAAG	78
TGTTTTTTCTTCTGTCAGGTGAAAGTATAGGACCAA	184
AGCGCCAATTGGTTACTCGTGAAGCTCAGATTAAAG	89.3
AAATTACTAAGTTGTCACCTGACTTACCCCGTATGA	2460
TGCGCAACAACTTGTCACGTTACTTTATGTCTAGAA	1190
AAGTTACGCGTATATCATGTGACAGTAATTACTATA	2600
GGATGTTTTCCAGATGTCGTGATGGTTTCACGAAGC	130
CTTCTGTAAATTTGAGGTGTGGGTGGACGCGCCCCG	65.5

A few entries again (set 6):
Strand	fluorescence intensity [a.u.]
AAATTACTAAGTTGTAGCGTGGGTGACGCCGTATGA	64.4
ACCCTTTTTCCTTGCCACGTTTTCACTCAGATCTAA	132
GCCATCCAAAACTTGCCCGTGGTGAACTCATTCGGA	81.9
GTTATTGGGCTAGGACACGTATGCGAACTACAACCT	69.1
TTGAACTCGCCGCCTCACCTGCCACTACGTCTTCCG	52
AAGGATAGCACTTTGATCATGCAATTATTAAGGGAC	102
CGTCCTAGTGATTGCGGTGTGGGTGCCATGAGGAAG	78
TGTTTTTTCTTCTGTCAGGTGAAAGTATAGGACCAA	184
AGCGCCAATTGGTTACTCGTGAAGCTCAGATTAAAG	89.3
AAATTACTAAGTTGTCACCTGACTTACCCCGTATGA	2460
TGCGCAACAACTTGTCACGTTACTTTATGTCTAGAA	1190
AAGTTACGCGTATATCATGTGACAGTAATTACTATA	2600
GGATGTTTTCCAGATGTCGTGATGGTTTCACGAAGC	130
CTTCTGTAAATTTGAGGTGTGGGTGGACGCGCCCCG	65.5
